Measurements gathered from unrelated publications.
Parts stem from different laboratories: compare values within a part only.

Study 1 — technique: Spec-seq; form: double-stranded DNA, one strand shown; medium: in vitro; tested at: not given; notes: whole probe, mean of replicates; relative to: not given; reading: lower = stronger binding; all sequences stand within: GAGTCGTCTCGTCAGCAC … CCGTAGAGCACTCAGGTC
Target: Transcription factor SOX-2, HMG box (Sox2, Mus musculus, UniProt P48432, residues 41-119)
Chain of UniProt P48432 (41-119, looked up): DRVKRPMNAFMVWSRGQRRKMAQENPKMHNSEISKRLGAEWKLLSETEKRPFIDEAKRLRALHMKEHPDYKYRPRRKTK
Strand	relative binding energy
CATTGCC	-0.05 ln ratio
CTGGGTT	1.48 ln ratio
ACAGGTT	0.0193 ln ratio
CATGTAG	0.0126 ln ratio
GTCGGTT	1.48 ln ratio
GTCCGTT	1.16 ln ratio
CATAGGC	-0.533 ln ratio
ACACGTT	0.391 ln ratio
AGTAGTT	-0.0838 ln ratio
CATTTCT	0.00321 ln ratio
CAAAGTT	0.37 ln ratio
CATCTAA	0.417 ln ratio

Study 2 — technique: universal PBM; form: double-stranded DNA, one strand shown; medium: in vitro; tested at: not given; reading: higher = stronger binding
Target: Sal-like protein 4, full length isoform B (SALL4, Homo sapiens, UniProt Q9UJQ4-2, residues 1-616)
Notes: 8-mer, flanks averaged, mean of replicates
Strand	E-score
CCAAGTTC	-0.177
ACCCAAGC	-0.16
GGTCGCCA	-0.336
CCATCGAG	-0.0933
AATAGTAT	0.35
ATTGCCTG	-0.0541
CGCTAGAG	-0.217

Study 3 — technique: RNA Bind-n-Seq; form: RNA; medium: in vitro; tested at: 365 nM; relative to: no-protein control; reading: higher = stronger binding
Target: RNA binding protein fox-1 homolog 2, RRM domain, GST-SBP tag (RBFOX2, Homo sapiens, UniProt O43251-10, residues 100-194)
Notes: natural RNA segment, single round, ends assumed
Target sequence (chain): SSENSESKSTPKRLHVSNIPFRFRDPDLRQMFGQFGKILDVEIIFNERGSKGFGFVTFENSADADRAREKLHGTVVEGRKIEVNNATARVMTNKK
Strand	RBNS enrichment (R)
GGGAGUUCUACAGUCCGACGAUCUUGAAUACUCCAUCCCCUUCCCUCCCAGUGAAUGGAAUGAGAAAAGCCUUCUUCCUUUGCUUCAGGCAGCUGUCACCUUCUCUUUAUUGGUGGUCCUAAGUGGGUCACUUUGGAAUUCUCGGGUGCCAA	0.405
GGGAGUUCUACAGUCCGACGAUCUUCUCCAAAGAAAUAUAAUUUUGGUUUUUGUUCCUCAGAGAGAGUUUGAAAGAAAUUUUCAGAUGUUCUGUUCCCUAUAGAGGGCCUAUUCCAGGAUCUAAAUGAAUGGGUGGAAUUCUCGGGUGCCAA	0.352
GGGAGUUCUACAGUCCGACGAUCUGAUUUGUUGAUUUAGUUAAAAUAUACUAUUCCUAGAUUUAUUUAACAGUCUUUCUUAAAAUCAGUAUACUAUUUUAGUGGACUUCUGUCUCUAUGAGACAGCUAGUCCAUGGAAUUCUCGGGUGCCAA	0.411
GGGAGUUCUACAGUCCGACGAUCCUCAUCCCUCAGCAGAAAAAUGUGGGCCUAAAAUGAGUUGUGUCACUCAGCAAACAUUUCCUGAGUACCUACUAUAUACCAAACUUAUAGAAAGACUAACUAGGGAACAAUGGAAUUCUCGGGUGCCAA	0.303
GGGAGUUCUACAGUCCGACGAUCCUUUUUUAGUUCUUAAAAAUUUAUUUUUAAGUUCUAAAAUAAAAUAAAAAUAAGUUCUUAAAAUUUAUUUUUUUCCUGAAUAAAUUGUAUUUGGUAAACUUCUGCCUACAUGGAAUUCUCGGGUGCCAA	1.1
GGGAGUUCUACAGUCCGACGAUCUAUGUAUGUGAGCACGUUGGGGUGCGCAUAAGCUAUCACCAUCUUCUUCUCUUCUAUCAUCCAAAUCAAAUGUAAGAAGUCCCUCACAUCCGAUUAGCCCAACUCUGUCUUGGAAUUCUCGGGUGCCAA	0.242
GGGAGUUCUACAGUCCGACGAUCUUUAGGCUUAUGCCUAGAGUCACCCCAAAGAACUGAGACUGGCUGCAGCAGCCCAGCUGUGUUUCUCAUUGAUGAUAAUAGUAGGCUCUACUGCCCUCCCCUCCCCUAUCUGGAAUUCUCGGGUGCCAA	0.292
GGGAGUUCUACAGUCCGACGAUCAGAUGUCCAGGCGGAUUUGGAGGGUGCAGCCCUGUCUGUGCCUGGGGCUUUAACCCUGUACAACGUCACCGAGAGCAACGCCUCCUACUUGGAUCCUGGAGCCAGUCCCUUGGAAUUCUCGGGUGCCAA	0.348

Further values, each from its own experiment
Substance	target	test	test system	setting	how to read	endpoint	value
PhoQ, residues 284 288 289 292 302 303 SSTLLI	PhoP, residues 12 14 15 18 19 NQGLL (Escherichia coli, UniProt P23836)	Sort-seq, refers to: YFP reporter	E. coli	PhoQ-PhoP variant library, with: 10 µM Mg2+	relative to: high Mg2+ state, higher = stronger signaling	fold induction	1.12

Some of these lines once more (study 1):
Strand	relative binding energy
CTGGGTT	1.48 ln ratio
ACAGGTT	0.0193 ln ratio
